Measurements from different studies.
Every numbered part comes from another study and shows a few of its results, in no order.
Chain of UniProt P42336 (whole entry, unmodified, looked up): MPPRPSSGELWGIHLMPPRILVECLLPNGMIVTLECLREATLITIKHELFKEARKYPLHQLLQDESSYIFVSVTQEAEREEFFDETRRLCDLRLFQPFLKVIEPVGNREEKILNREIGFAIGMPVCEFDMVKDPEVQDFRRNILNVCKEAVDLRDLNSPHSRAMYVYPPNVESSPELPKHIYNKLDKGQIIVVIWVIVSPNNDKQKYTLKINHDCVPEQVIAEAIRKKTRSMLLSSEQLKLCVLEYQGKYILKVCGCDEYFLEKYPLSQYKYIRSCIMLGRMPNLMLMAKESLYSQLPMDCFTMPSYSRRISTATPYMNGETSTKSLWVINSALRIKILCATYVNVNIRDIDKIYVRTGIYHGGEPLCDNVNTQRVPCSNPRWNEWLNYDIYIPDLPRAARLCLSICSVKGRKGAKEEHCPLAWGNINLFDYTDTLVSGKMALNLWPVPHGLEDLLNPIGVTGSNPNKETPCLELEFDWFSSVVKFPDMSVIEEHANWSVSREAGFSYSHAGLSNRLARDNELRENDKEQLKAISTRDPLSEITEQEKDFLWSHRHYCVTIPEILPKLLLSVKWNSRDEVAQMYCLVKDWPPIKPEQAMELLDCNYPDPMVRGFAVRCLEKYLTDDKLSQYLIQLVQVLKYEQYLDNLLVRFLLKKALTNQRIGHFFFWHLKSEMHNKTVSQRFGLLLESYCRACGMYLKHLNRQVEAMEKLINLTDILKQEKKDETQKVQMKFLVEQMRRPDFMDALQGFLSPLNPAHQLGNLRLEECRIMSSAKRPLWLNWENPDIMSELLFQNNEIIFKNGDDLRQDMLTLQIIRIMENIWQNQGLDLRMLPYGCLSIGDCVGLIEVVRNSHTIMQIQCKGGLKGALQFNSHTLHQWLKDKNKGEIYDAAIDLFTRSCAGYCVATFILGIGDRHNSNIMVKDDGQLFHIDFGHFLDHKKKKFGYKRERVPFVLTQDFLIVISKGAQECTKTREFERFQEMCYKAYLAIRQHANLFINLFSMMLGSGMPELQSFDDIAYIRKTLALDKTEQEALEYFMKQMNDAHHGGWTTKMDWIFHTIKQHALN
Chain of UniProt O43683 (whole entry, looked up): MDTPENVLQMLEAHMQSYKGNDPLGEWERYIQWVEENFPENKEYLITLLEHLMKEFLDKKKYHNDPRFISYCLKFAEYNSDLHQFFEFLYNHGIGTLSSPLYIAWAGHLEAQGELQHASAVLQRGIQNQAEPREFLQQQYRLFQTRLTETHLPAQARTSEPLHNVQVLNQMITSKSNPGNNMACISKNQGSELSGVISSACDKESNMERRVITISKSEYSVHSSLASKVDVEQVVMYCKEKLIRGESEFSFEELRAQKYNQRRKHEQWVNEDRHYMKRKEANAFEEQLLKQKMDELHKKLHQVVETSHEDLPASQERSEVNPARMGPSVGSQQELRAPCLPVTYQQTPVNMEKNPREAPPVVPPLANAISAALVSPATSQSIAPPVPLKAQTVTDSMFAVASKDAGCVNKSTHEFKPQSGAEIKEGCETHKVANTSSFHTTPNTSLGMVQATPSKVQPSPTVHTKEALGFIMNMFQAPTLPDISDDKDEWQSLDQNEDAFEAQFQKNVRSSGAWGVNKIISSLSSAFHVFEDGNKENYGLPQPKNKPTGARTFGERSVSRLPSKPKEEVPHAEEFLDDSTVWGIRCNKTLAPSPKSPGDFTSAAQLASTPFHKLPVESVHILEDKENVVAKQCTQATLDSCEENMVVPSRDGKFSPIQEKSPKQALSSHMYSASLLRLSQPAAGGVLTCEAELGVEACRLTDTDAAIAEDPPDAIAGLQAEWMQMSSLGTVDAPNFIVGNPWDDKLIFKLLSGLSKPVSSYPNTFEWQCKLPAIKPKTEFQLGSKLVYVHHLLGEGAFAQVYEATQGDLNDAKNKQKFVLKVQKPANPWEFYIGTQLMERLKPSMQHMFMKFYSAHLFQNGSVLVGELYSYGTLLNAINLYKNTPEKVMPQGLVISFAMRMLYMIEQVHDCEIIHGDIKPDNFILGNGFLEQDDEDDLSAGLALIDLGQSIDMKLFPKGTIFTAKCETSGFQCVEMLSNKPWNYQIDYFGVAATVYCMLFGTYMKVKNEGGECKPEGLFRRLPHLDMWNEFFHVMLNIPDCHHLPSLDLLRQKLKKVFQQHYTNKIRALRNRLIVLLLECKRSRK
Chain of UniProt Q9UPE1 (whole entry, looked up): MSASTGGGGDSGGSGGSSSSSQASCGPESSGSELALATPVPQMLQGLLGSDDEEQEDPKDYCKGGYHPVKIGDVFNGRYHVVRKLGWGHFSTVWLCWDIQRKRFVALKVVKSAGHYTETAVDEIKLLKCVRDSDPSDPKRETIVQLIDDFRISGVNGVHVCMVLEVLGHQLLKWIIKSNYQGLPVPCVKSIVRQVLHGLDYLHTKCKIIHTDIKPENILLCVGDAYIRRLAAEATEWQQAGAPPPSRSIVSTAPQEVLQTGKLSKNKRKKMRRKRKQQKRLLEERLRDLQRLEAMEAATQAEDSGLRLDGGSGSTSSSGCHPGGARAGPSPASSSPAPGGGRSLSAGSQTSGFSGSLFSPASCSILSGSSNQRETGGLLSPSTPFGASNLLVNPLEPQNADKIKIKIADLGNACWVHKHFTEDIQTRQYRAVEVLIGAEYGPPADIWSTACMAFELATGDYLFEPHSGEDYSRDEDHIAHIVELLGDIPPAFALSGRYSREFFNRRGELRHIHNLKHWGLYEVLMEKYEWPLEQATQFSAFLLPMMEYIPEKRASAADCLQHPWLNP
Chain of UniProt Q9UIK4 (whole entry, looked up): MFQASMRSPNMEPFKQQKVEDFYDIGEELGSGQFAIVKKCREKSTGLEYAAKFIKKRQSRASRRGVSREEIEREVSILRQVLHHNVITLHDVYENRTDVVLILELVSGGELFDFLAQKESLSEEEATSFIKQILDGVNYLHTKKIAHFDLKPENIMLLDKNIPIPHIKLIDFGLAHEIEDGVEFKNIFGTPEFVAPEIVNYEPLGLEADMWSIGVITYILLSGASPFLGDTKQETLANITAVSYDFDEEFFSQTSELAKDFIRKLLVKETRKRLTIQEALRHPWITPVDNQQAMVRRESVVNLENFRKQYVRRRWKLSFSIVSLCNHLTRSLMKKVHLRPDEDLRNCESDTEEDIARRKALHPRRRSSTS
Chain of UniProt P50750 (whole entry, looked up): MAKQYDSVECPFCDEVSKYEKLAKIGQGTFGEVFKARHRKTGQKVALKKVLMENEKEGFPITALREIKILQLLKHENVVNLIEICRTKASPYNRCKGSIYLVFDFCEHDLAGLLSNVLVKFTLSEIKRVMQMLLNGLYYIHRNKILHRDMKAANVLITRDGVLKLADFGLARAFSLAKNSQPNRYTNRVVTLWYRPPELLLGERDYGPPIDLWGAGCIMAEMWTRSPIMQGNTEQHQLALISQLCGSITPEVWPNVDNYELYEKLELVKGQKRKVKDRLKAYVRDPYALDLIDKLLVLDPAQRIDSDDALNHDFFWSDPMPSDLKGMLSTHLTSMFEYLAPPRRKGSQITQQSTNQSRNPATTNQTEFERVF
Chain of UniProt P42679 (whole entry, looked up): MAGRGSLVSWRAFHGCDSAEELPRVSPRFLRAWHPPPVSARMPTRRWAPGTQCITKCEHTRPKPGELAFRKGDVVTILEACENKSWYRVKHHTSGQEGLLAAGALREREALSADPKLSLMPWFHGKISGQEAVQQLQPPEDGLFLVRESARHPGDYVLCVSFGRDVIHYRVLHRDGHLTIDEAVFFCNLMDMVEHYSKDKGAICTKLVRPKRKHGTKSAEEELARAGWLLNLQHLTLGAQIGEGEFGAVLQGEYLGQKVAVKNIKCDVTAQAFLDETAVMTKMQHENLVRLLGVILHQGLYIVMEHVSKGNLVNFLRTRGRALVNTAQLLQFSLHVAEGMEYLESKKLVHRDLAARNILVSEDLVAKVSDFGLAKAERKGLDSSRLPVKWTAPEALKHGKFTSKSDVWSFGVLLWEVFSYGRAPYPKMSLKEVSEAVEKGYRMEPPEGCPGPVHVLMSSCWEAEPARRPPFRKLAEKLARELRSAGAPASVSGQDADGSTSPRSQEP
Chain of UniProt P68400 (whole entry, looked up): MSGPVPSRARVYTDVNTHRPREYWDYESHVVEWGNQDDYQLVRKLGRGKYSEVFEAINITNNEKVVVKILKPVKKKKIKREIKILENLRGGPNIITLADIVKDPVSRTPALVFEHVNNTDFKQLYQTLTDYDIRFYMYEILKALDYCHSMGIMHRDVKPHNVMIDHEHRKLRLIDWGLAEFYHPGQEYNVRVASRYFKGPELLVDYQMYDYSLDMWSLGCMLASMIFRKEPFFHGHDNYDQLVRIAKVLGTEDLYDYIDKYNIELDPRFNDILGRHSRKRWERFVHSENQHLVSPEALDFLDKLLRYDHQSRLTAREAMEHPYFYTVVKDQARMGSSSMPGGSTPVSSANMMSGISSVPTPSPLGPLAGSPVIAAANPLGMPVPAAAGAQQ
Chain of UniProt P42680 (whole entry, looked up): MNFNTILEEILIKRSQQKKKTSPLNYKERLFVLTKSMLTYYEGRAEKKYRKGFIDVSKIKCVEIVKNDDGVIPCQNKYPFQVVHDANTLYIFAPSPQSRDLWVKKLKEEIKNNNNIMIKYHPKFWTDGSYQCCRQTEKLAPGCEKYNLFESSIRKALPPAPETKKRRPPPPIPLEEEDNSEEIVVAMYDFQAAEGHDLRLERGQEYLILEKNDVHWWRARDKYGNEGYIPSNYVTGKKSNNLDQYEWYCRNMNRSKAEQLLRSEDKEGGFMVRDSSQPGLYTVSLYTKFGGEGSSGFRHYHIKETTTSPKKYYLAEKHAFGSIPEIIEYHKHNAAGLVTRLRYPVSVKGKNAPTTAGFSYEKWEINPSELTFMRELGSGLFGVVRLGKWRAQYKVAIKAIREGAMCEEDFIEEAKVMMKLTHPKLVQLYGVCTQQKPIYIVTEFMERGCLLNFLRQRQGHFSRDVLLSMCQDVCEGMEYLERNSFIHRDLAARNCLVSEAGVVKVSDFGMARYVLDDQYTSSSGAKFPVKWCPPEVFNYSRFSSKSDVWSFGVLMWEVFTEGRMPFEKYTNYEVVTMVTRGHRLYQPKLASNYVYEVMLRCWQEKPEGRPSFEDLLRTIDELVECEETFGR

Study 1 — organism: Sarcocystis neurona; observed: parasite growth; concentration: 10 µM; time: 96 h; setting: second screen; reference: untreated
| Compound | log2 fold change |
| --- | --- |
| CC(=O)CCCCn1c(=O)c2c(ncn2C)n(C)c1=O | 0.11 |
| CCN1CCCC1CNC(=O)c1cc(S(=O)(=O)CC)c(N)cc1OC (stereo not drawn) | 0.15 |
| CC(=O)OCC(=O)[C@@]1(O)CC[C@H]2[C@@H]3CCC4=CC(=O)C=C[C@]4(C)[C@H]3[C@@H](O)C[C@@]21C | -0.07 |
| COc1cccc2c1C(=O)c1c(O)c3c(c(O)c1C2=O)C[C@@](O)(C(=O)CO)C[C@@H]3O[C@H]1C[C@H](N)[C@@H](O)[C@H](C)O1 | -1.66 |
| NC(=O)c1cccnc1 | 0.36 |
| CC(C)(C)NCC(O)c1cc(O)cc(O)c1 (stereo not drawn) | 0.51 |
| COc1cc(/C=C/c2ccc(O)cc2)cc(OC)c1 | 1.6 |
| O=C1CCc2ccc(OCCCCN3CCN(c4cccc(Cl)c4Cl)CC3)cc2N1 | 0.04 |

Study 2 — observed: enzyme activity; mode: inhibitor; concentration: 0.5 µM; reference: control
Target: Protein kinase C zeta type (PRKCZ, Homo sapiens, UniProt Q05513)
Target sequence (Q05513 1-592): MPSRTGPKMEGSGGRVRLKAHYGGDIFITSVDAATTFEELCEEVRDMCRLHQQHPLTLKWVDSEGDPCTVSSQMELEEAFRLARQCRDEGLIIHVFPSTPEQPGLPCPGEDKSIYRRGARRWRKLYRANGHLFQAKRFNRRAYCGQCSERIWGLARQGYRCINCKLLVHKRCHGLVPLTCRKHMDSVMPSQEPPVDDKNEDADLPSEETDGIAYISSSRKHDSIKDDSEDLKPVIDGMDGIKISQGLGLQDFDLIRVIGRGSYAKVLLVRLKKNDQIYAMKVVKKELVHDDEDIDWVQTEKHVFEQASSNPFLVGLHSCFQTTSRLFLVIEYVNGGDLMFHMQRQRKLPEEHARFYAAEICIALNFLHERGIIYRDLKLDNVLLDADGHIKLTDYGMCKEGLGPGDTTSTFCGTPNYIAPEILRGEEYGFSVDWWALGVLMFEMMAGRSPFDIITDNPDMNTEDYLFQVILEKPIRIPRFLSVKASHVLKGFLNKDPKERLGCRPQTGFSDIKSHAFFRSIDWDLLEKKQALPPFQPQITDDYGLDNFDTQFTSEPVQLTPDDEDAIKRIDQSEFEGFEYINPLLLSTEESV
| SMILES | remaining activity [%] |
| --- | --- |
| Cn1nc2c3c(cccc31)C(=O)c1ccccc1-2 | 97.9 |
| O=C1C(Cl)=C(N2C(=O)CCC2=O)C(=O)c2ccccc21 | 114 |
| COc1cc2ncnc(Nc3ccc(O)c(Br)c3)c2cc1OC | 93 |
| CCOc1nc(NC(=O)Cc2cc(OC)ccc2OC)cc(N)c1C#N | 104 |
| c1ccc(-c2[nH]ncc2-c2ccnc3ccccc23)nc1 | 115 |
| c1ccc(-c2cnc(Nc3ccc(OCCN4CCCC4)cc3)s2)cc1 | 96.3 |

Study 3 — cell line: A-375; concentration: 100 µM; time: 36 h
| Structure (SMILES) | viability |
| --- | --- |
| CCCCC1C(=O)N(c2ccccc2)N(c2ccccc2)C1=O | 85.2% |
| CCOC(=O)[C@H](CCc1ccccc1)N[C@@H](C)C(=O)N1CCC[C@H]1C(=O)O | 122% |
| COc1ccc(-c2cc(=S)ss2)cc1 | 87.5% |
| COc1ccc2cc1Oc1ccc(cc1)C[C@H]1c3c(cc4c(c3Oc3cc5c(cc3OC)CCN(C)[C@@H]5C2)OCO4)CCN1C | 1.94% |
| CC(=O)c1ccc(S(=O)(=O)NC(=O)NC2CCCCC2)cc1 | 111% |
| CNCCCC1c2ccccc2C=Cc2ccccc21 | -2.6% |
| Brc1c(NC2=NCCN2)ccc2nccnc12 | 109% |

Study 4 — technique: competition with immobilised ligand; concentration: 1 µM
Compound: CN1CCN(c2cnc3c(C4CCN(C(=O)c5ccc(OC(F)(F)F)cc5N)CC4)ncnc3c2)CC1
| target | test | remaining binding [%] |
| --- | --- | --- |
| Serine/threonine-protein kinase 38-like (STK38L, Homo sapiens, UniProt Q9Y2H1) | binding | 100 |
| Death-associated protein kinase 1 (DAPK1, Homo sapiens, UniProt P53355) | cell-free assay | 100 |
| Serine/threonine-protein kinase B-raf (BRAF, Homo sapiens, UniProt P15056, V600E) | cell-free assay | 100 |
| cAMP-dependent protein kinase catalytic subunit beta (PRKACB, Homo sapiens, UniProt P22694) | cell-free assay | 91 |
| Megakaryocyte-associated tyrosine-protein kinase (MATK, Homo sapiens, UniProt P42679) | cell-free assay | 100 |
| Ephrin type-B receptor 6 (EPHB6, Homo sapiens, UniProt O15197) | cell-free assay | 18 |
| Mitotic checkpoint serine/threonine-protein kinase BUB1 (BUB1, Homo sapiens, UniProt O43683) | cell-free assay | 93 |
| Death-associated protein kinase 2 (DAPK2, Homo sapiens, UniProt Q9UIK4) | cell-free assay | 90 |
| Focal adhesion kinase 1 (PTK2, Homo sapiens, UniProt Q05397) | cell-free assay | 100 |
| Phosphatidylinositol 4,5-bisphosphate 3-kinase catalytic subunit alpha isoform (PIK3CA, Homo sapiens, UniProt P42336, E545A) | cell-free assay | 89 |
| Phosphatidylinositol 4,5-bisphosphate 3-kinase catalytic subunit alpha isoform (PIK3CA, Homo sapiens, UniProt P42336, H1047L) | cell-free assay | 100 |
| Serine/threonine-protein kinase pim-1 (PIM1, Homo sapiens, UniProt P11309) | cell-free assay | 90 |
| Cyclin-dependent kinase 9 (CDK9, Homo sapiens, UniProt P50750) | cell-free assay | 100 |
| SRSF protein kinase 3 (SRPK3, Homo sapiens, UniProt Q9UPE1) | cell-free assay | 100 |
| Casein kinase II subunit alpha (CSNK2A1, Homo sapiens, UniProt P68400) | cell-free assay | 100 |
| Tyrosine-protein kinase Tec (TEC, Homo sapiens, UniProt P42680) | binding | 100 |
| Tyrosine-protein kinase ABL1, non-phosphorylated (ABL1, Homo sapiens, UniProt P00519, T315I) | cell-free assay | 100 |

Further values, each from its own experiment
| Compound | test system | endpoint | value |
| --- | --- | --- | --- |
| CCC[C@@H]1NC(=O)CSC[C@@H](C(=O)OCC)N(C)C(=O)[C@H](CC(C)C)NC(=O)[C@@H](C)N(C)C(=O)[C@@H](CC(C)C)NC(=O)[C@H](C)N(C)C(=O)[C@H]2CCCN2C(=O)[C@H](CC(C)C)NC(=O)CN(C)C1=O | hydrocarbon/water | logD | -0.184 |

Repeated from above (study 4):
| target | test | remaining binding [%] |
| --- | --- | --- |
| Focal adhesion kinase 1 (PTK2, Homo sapiens, UniProt Q05397) | cell-free assay | 100 |
| Phosphatidylinositol 4,5-bisphosphate 3-kinase catalytic subunit alpha isoform (PIK3CA, Homo sapiens, UniProt P42336, E545A) | cell-free assay | 89 |
| Phosphatidylinositol 4,5-bisphosphate 3-kinase catalytic subunit alpha isoform (PIK3CA, Homo sapiens, UniProt P42336, H1047L) | cell-free assay | 100 |
| Serine/threonine-protein kinase pim-1 (PIM1, Homo sapiens, UniProt P11309) | cell-free assay | 90 |
| Cyclin-dependent kinase 9 (CDK9, Homo sapiens, UniProt P50750) | cell-free assay | 100 |
